Results of several laboratories.
Lines come from different studies, so protocols differ. Values joined by “and” are separate records of one study, mostly repeats; a detail may differ. ± gives the spread as reported.
Genome polyprotein NS3 helicase domain: Genome polyprotein, NS3 helicase domain (Hepatitis C virus genotype 1b, UniProt Q9WMX2)
WD repeat-containing protein 91 WD40 domain, residues 392–747: WD repeat-containing protein 91, WD40 domain, residues 392–747 (Homo sapiens, UniProt A4D1P6)
Chain of UniProt A4D1P6 (whole entry, looked up): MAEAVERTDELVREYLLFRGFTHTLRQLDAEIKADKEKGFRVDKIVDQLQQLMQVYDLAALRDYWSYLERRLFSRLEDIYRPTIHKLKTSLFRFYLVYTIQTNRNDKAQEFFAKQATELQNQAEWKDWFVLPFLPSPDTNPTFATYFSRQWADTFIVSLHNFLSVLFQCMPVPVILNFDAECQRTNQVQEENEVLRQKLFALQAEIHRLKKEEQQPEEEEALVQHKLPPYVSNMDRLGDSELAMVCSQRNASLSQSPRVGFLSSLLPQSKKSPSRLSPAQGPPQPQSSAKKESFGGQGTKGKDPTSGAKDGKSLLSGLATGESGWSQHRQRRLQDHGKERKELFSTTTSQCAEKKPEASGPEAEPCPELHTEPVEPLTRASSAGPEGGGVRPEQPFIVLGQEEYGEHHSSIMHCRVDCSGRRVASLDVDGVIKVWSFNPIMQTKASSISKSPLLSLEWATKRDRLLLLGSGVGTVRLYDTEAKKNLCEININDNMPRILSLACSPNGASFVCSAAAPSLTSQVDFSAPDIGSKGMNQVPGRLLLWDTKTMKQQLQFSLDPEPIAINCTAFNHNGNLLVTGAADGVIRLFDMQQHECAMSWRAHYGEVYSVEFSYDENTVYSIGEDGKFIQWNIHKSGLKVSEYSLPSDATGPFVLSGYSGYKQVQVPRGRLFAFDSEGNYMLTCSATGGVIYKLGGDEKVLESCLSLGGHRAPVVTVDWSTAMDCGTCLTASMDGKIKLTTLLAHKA
Glutamate receptor 2: Glutamate receptor 2 (Homo sapiens, UniProt P42262)
ESR1: Estrogen receptor (ESR1, Homo sapiens, UniProt P03372)
Chain of UniProt P03372 (whole entry, looked up): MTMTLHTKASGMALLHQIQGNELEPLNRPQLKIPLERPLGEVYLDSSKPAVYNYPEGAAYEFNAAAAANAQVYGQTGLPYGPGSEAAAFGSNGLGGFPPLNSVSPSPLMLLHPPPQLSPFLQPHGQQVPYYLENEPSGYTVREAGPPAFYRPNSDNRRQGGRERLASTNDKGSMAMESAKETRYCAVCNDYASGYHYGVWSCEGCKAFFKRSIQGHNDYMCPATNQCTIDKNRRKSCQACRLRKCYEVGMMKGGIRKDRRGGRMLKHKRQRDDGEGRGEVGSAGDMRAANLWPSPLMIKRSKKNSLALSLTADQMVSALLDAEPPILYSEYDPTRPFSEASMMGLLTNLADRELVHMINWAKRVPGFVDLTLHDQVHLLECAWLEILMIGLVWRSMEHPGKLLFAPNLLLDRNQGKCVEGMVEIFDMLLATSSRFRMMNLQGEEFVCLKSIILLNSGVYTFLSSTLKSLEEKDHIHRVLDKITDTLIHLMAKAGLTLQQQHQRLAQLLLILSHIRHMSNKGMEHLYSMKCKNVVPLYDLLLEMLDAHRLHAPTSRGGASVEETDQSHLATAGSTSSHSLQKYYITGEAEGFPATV
T1: riboswitch RNA yjdF aptamer (Bacillus subtilis); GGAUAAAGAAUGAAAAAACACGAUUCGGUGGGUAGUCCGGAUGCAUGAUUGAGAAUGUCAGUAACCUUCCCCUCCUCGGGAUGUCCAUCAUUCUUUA
Chain of UniProt P31947 (whole entry, looked up): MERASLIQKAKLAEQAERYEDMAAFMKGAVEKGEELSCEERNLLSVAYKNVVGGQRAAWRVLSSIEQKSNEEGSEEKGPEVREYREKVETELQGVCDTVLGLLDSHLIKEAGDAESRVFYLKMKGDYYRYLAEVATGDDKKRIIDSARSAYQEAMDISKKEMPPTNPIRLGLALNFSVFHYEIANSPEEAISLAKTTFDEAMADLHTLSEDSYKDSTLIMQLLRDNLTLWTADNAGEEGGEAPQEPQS
Chain of UniProt P45985 (whole entry, looked up): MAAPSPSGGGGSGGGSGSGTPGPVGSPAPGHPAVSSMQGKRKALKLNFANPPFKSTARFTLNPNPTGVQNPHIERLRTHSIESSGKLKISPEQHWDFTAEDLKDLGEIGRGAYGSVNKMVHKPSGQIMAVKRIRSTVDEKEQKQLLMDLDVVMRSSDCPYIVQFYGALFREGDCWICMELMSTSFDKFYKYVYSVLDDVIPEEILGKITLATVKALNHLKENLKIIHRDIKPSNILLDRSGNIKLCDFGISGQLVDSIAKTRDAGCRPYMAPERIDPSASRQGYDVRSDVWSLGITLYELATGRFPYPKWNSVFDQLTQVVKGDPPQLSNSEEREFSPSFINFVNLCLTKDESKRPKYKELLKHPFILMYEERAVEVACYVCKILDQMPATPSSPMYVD

Structure (SMILES)	target	test	test system	conditions	how to read	quantity	value
O=C(CCCCCCC(=O)Nc1ccccc1)NO	HDAC8 (Homo sapiens, UniProt Q9BY41)	ITC	phosphate buffer	pH 7.5	–	TΔS	5.2 kcal/mol
C=CC(=O)N1CCC(C(=O)NCC(=O)N2CCN(c3nc(-c4cnc(N)nc4C(F)F)nc(N4CCOCC4)n3)CC2)CC1	WNK1 (Homo sapiens, UniProt Q9H4A3)	KINOMEscan	–	1 µM	–	remaining binding	99%
CC(C)=CCC/C(C)=C/CC/C(C)=C/COP(=O)(O)OP(=O)(O)O	rat protein farnesyltransferase	substrate, HPLC prenylation	–	–	–	Km	2.5 ± 0.7 µM
COCCOCc1ccc(-c2cc3onc(-c4ccccc4)c3c(=O)n2C)cc1	Nuclear receptor subfamily 4 group A member 3, ligand-binding domain (Homo sapiens, UniProt Q92570)	reporter gene, Gal4 hybrid reporter	–	1 µM	reference: vehicle	activation	1.19 ± 0.25 fold
C=CC(=O)N1CCC(COCC(=O)N2CCN(c3nc(-c4cnc(N)nc4C(F)F)nc(N4CCOC[C@@H]4C)n3)CC2)CC1	MAP2K4 (Homo sapiens, UniProt P45985)	KINOMEscan	–	1 µM	–	remaining binding	93%
CCCCCCCCCCCCCCCCCCNC(=O)OCC(COP(=O)([O-])OCC[n+]1ccsc1)OC (centres unmarked)	Genome polyprotein NS3 helicase domain	DNA binding, inhibitor	hepatitis C virus	100 µM, added: Cy5-dT15 DNA	–	inhibition	0%
CC1(C)CC2(C)OC(=O)NC2(C)c2ccccc21 (centres unmarked)	WD repeat-containing protein 91 (Homo sapiens, UniProt A4D1P6)	binding, affinity selection mass spectrometry	–	–	reference: other proteins in batch	fold enrichment	1.64
CCN1CCC[C@H]1CNC(=O)c1c(O)c(Cl)cc(Cl)c1OC	GPR55 (Homo sapiens, UniProt Q9Y2T6)	β-arrestin recruitment, TANGO luminescence	–	concentration not given	reference: basal luminescence	log2 fold change	0.101
COc1cccc(OC)c1NS(=O)(=O)c1ccc(N/C=C2\C(=O)Nc3ccc4ncsc4c32)cc1	Cyclin-dependent kinase 2, with cyclin A (CDK2, Homo sapiens, UniProt P24941)	bio-layer interferometry (Octet RED)	–	298 K, CDK2-cyclin A complex, averaged	–	Kd	0.333 µM
NC(=O)[C@@H]1CN(C(=O)c2cc3cccn3cn2)C[C@H]1c1ccccc1	WD repeat-containing protein 91 WD40 domain, residues 392–747	binding, SPR single-concentration screen	–	45 µM	–	SPR response	-6.7 RU and -2.1 RU
COc1cc(/C=C/C(=O)C(=Cc2ccc([N+](=O)[O-])cc2)C(=O)/C=C/c2ccc(O)c(OC)c2)ccc1O	haemin	binding, isothermal titration calorimetry	–	pH 7.4, 37 °C	–	ΔS	-210 ± 7.78 J/(mol·K)
Nc1ncnc2c1ncn2[C@@H]1O[C@H](COP(=O)(O)CP(=O)(O)OP(=O)(O)O)[C@@H](O)[C@H]1O	P2X purinoceptor 1 (P2RX1, Homo sapiens, UniProt P51575)	calcium influx	–	10 nM	reference: ionomycin response	calcium influx	0%
C=CC(=O)N1CCN(c2ccc(C)o2)C(=O)C1	14-3-3 protein sigma, with ERα phosphopeptide (SFN, Homo sapiens, UniProt P31947)	binding, fluorescence polarization	–	covalent ligand screen, added: phosphorylated ERalpha peptide	reference: control	FP signal	91%
CC(C)NCC(O)COc1cccc2ccccc12 (centres unmarked)	Glutamate receptor 2	ion current, positive allosteric modulator, SyncroPatch patch clamp	HEK293	3 µM	–	potentiation	98%
CC[C@H](C)[C@H](NC(=O)[C@H](CCSC)NC(=O)[C@H](CCSC)NC(=O)[C@H](C)NC(=O)[C@H](C)NC(=O)[C@H](Cc1ccc(O)cc1)NC(=O)[C@@H](NC(=O)[C@H](CCCCN)NC(=O)CNC(=O)[C@@H](NC(=O)[C@@H](NC(=O)[C@H](CCSC)NC(=O)[C@H](Cc1c[nH]cn1)NC(=O)CN)[C@@H](C)O)C(C)C)[C@@H](C)CC)C(=O)N[C@@H](C)C(=O)N[C@@H](CCC(=O)O)C(=O)N[C@@H](Cc1ccc(O)cc1)C(=O)N[C@@H](Cc1ccc(O)cc1)C(=O)N[C@@H](CCCNC(=N)N)C(=O)N[C@@H](CCC(N)=O)C(=O)N[C@@H](CO)C(=O)N[C@@H](CCCCN)C(=O)N[C@@H](C)C(=O)N[C@@H](CCCCN)C(=O)N[C@@H](CCCCN)C(=O)N[C@@H](CC(C)C)C(=O)N[C@@H](CCC(N)=O)C(=O)N[C@@H](C)C(=O)N[C@@H](CCSC)C(=O)N[C@@H](CCCNC(=N)N)C(=O)O	Calmodulin-1, Ca2+-bound C-lobe (CALM1, Homo sapiens, UniProt P0DP23)	binding, isothermal titration calorimetry	–	pH 7.4, 15 °C, C-lobe, CaV2.1 IQ domain, added: Ca2+	–	ΔH	-7.52 ± 0.2 kcal/mol
Cc1cc2nc3[nH]c(=O)[nH]c(=O)c3nc2cc1C	T1, riboswitch RNA yjdF aptamer (Bacillus subtilis)	fluorescence titration	–	added: 380 nM lumichrome	–	Kd	9 µM
O=c1cc(-c2ccc(O)c(O)c2)oc2cc(O)cc(O)c12	ESR1	array formation	PRL-HeLa	–	reference: EC50 ERβ over EC50 ERα	selectivity ratio	0.791
O=C(COP(=O)(O)O)[C@@H](O)[C@H](O)[C@H](O)COP(=O)(O)O	SFN (Homo sapiens, UniProt P31947)	thermal proteome profiling	HepG2 cell lysate	concentration not given, 57 over 37 °C	reference: compound over control	thermal stability ratio	0.119 and 0.716 and 0.764

Structure (SMILES)	target	test	test system	conditions	how to read	quantity	value
C=C[C@@]1(C)CC(=O)[C@]2(O)[C@@]3(C)[C@@H](O)CCC(C)(C)[C@@H]3[C@H](O)[C@H](OC(C)=O)[C@@]2(C)O1	Genome polyprotein NS3 helicase domain	DNA binding, inhibitor	hepatitis C virus	100 µM, added: Cy5-dT15 DNA	–	inhibition	0%
Cc1nc(CSc2nc(SCc3ccc(C(C)C)cc3)nc(=O)[nH]2)cs1	TOP2A (Homo sapiens, UniProt P11388)	decatenation	–	125 µM, replicate 2	–	decatenated DNA	0%
CC[C@H](C)[C@H](NC(=O)[C@H](CCCCN)NC(=O)CNC(=O)[C@@H](NC(=O)[C@@H](NC(=O)[C@H](CCSC)NC(=O)[C@H](Cc1c[nH]cn1)NC(=O)CN)[C@@H](C)O)C(C)C)C(=O)N[C@@H](Cc1ccc(O)cc1)C(=O)N[C@@H](C)C(=O)N[C@@H](C)C(=O)N[C@@H](C)C(=O)N[C@@H](CCSC)C(=O)N[C@H](C(=O)N[C@@H](CCSC)C(=O)N[C@@H](CCC(=O)O)C(=O)N[C@@H](Cc1ccc(O)cc1)C(=O)N[C@@H](Cc1ccc(O)cc1)C(=O)N[C@@H](CCCNC(=N)N)C(=O)N[C@@H](CCC(N)=O)C(=O)N[C@@H](CO)C(=O)N[C@@H](CCCCN)C(=O)N[C@@H](C)C(=O)N[C@@H](CCCCN)C(=O)N[C@@H](CCCCN)C(=O)N[C@@H](CC(C)C)C(=O)N[C@@H](CCC(N)=O)C(=O)N[C@@H](C)C(=O)N[C@@H](CCSC)C(=O)N[C@@H](CCCNC(=N)N)C(=O)O)[C@@H](C)CC	Calmodulin-1, Ca2+-bound N-lobe (CALM1, Homo sapiens, UniProt P0DP23)	binding, isothermal titration calorimetry	–	pH 7.4, 15 °C, N-lobe, CaV2.1 IQ domain, added: Ca2+	–	stoichiometry	0.95 ± 0.02
O=C1CC[C@H](N2Cc3c(ccc4c3OCC43CCN(C[C@@H]4CCC5(CCN(c6ccc([C@@H]7c8ccc(O)cc8CC[C@@H]7c7ccccc7)cc6)CC5)OC4)CC3)C2=O)C(=O)N1	ESR1	–	mouse, MCF7 xenograft	oral, 30 mg/kg daily for 3 days, 24 h	reference: vehicle	ER level reduction	71 to 72%
CC(=O)N[C@@H](CC(N)=O)C(=O)N[C@@H](CC(C)C)C(=O)NCC(=O)N[C@@H](CCCCN)C(=O)N[C@@H](Cc1c[nH]cn1)C(=O)N[C@@H](CCC(=O)O)C(=O)N[C@@H](CCCCN)C(=O)N[C@@H](Cc1ccccc1)C(=O)N[C@@H](CO)C(=O)N[C@@H](CCC(=O)O)C(=O)N[C@H](C(=O)N[C@@H](CC(C)C)C(=O)N[C@@H](CCCCN)C(=O)N[C@@H](CCCNC(=N)N)C(=O)N[C@@H](CC(C)C)C(=O)N[C@@H](CCCNC(=N)N)C(=O)N[C@@H](CC(C)C)C(=O)N[C@@H](CCC(N)=O)C(N)=O)C(C)C	Calmodulin-1 (CALM1, Homo sapiens, UniProt P0DP23)	ITC	–	concentration not given, full-length, added: CaCl2 1 mM	–	binding stoichiometry	2.12
CN1CCc2ccc(C(=O)N3CCN(C(=O)C4CCC(C#N)CC4)CC3)cc2C1 (centres unmarked)	WD repeat-containing protein 91 WD40 domain, residues 392–747	SPR	–	45 µM	–	binding	-6% and -10%
CCN(CC)CCCC(C)Nc1c2ccc(Cl)cc2nc2ccc(OC)cc12 (centres unmarked)	Genome polyprotein NS3 helicase domain	DNA binding, inhibitor	hepatitis C virus	100 µM, added: Cy5-dT15 DNA	–	inhibition	1%
Nc1c(Br)cc(Br)cc1CN[C@H]1CC[C@H](O)CC1	Glutamate receptor 2	ion current, agonist, SyncroPatch patch clamp	HEK293	30 µM	–	activation	4%
COc1ccc(C(=O)N2CCC(C#N)CC2)cc1OC1CCN(C)CC1	WD repeat-containing protein 91 WD40 domain, residues 392–747	binding, SPR single-concentration screen	–	45 µM	–	SPR response	-5.4 RU and -2.1 RU
COc1cc(O)c2c(=O)cc(-c3ccc(O)cc3)oc2c1	ESR1	array formation	PRL-HeLa	–	reference: EC50 ERβ over EC50 ERα	selectivity ratio	0.745
O=c1ccn([C@@H]2O[C@H](COP(=O)(O)OP(=O)(O)O)[C@@H](O)[C@H]2O)c(=O)[nH]1	ABO (Homo sapiens, UniProt P16442, G235S/G268A/L266M/R176G)	ZZ-exchange NMR	–	compound-bound to free complex, added: H-disaccharide	–	exchange rate constant	2.5 ± 0.6 s⁻¹
COc1cc(/C=C(\C#N)C(=O)c2ccc(O)c(O)c2)cc(I)c1O	Genome polyprotein NS3 helicase domain	DNA binding, inhibitor	hepatitis C virus	100 µM, added: Cy5-dT15 DNA	–	inhibition	37%
CCn1c(SCC(=O)Nc2cccc(C(C)=O)c2)nnc1-c1ccncc1	CDK2 (Homo sapiens, UniProt P24941)	binding	–	–	–	Kd	> 100 µM
N[C@@H](Cc1c[nH]c2ccccc12)C(=O)O	Genome polyprotein NS3 helicase domain	DNA binding, inhibitor	hepatitis C virus	100 µM, added: Cy5-dT15 DNA	–	inhibition	2%
Nc1ncnc2c1ncn2[C@@H]1O[C@H](CO[P@](=O)(O)O[P@](=O)(O)O[P@@](=O)(O)S)[C@@H](O)[C@H]1O	GUK1 (Homo sapiens, UniProt Q16774)	ITC	–	concentration not given	–	ΔH of binding	-4.19 ± 0.09 kcal/mol
CCCn1cnc2c1c(=O)n(CCCCC(C)=O)c(=O)n2C	Genome polyprotein NS3 helicase domain	DNA binding, inhibitor	hepatitis C virus	100 µM, added: Cy5-dT15 DNA	–	inhibition	1%
CC[C@@H]1[C@H](F)C(=O)N[C@@H]1COc1nccc2cc(C(N)=O)c(OC)cc12	WEE1 (Homo sapiens, UniProt P30291)	ATP-site probe binding, ActivX profiling	THP-1 cell lysate	0.04 mM, Lys2 site	–	inhibition	-1.5%

For quick reference, copied from above:
Structure (SMILES)	target	test	test system	conditions	how to read	quantity	value
CC[C@H](C)[C@H](NC(=O)[C@H](CCSC)NC(=O)[C@H](CCSC)NC(=O)[C@H](C)NC(=O)[C@H](C)NC(=O)[C@H](Cc1ccc(O)cc1)NC(=O)[C@@H](NC(=O)[C@H](CCCCN)NC(=O)CNC(=O)[C@@H](NC(=O)[C@@H](NC(=O)[C@H](CCSC)NC(=O)[C@H](Cc1c[nH]cn1)NC(=O)CN)[C@@H](C)O)C(C)C)[C@@H](C)CC)C(=O)N[C@@H](C)C(=O)N[C@@H](CCC(=O)O)C(=O)N[C@@H](Cc1ccc(O)cc1)C(=O)N[C@@H](Cc1ccc(O)cc1)C(=O)N[C@@H](CCCNC(=N)N)C(=O)N[C@@H](CCC(N)=O)C(=O)N[C@@H](CO)C(=O)N[C@@H](CCCCN)C(=O)N[C@@H](C)C(=O)N[C@@H](CCCCN)C(=O)N[C@@H](CCCCN)C(=O)N[C@@H](CC(C)C)C(=O)N[C@@H](CCC(N)=O)C(=O)N[C@@H](C)C(=O)N[C@@H](CCSC)C(=O)N[C@@H](CCCNC(=N)N)C(=O)O	Calmodulin-1, Ca2+-bound C-lobe (CALM1, Homo sapiens, UniProt P0DP23)	binding, isothermal titration calorimetry	–	pH 7.4, 15 °C, C-lobe, CaV2.1 IQ domain, added: Ca2+	–	ΔH	-7.52 ± 0.2 kcal/mol
CC(C)NCC(O)COc1cccc2ccccc12 (centres unmarked)	Glutamate receptor 2	ion current, positive allosteric modulator, SyncroPatch patch clamp	HEK293	3 µM	–	potentiation	98%
Nc1ncnc2c1ncn2[C@@H]1O[C@H](COP(=O)(O)CP(=O)(O)OP(=O)(O)O)[C@@H](O)[C@H]1O	P2X purinoceptor 1 (P2RX1, Homo sapiens, UniProt P51575)	calcium influx	–	10 nM	reference: ionomycin response	calcium influx	0%
Nc1ncnc2c1ncn2[C@@H]1O[C@H](CO[P@](=O)(O)O[P@](=O)(O)O[P@@](=O)(O)S)[C@@H](O)[C@H]1O	GUK1 (Homo sapiens, UniProt Q16774)	ITC	–	concentration not given	–	ΔH of binding	-4.19 ± 0.09 kcal/mol
C=CC(=O)N1CCC(C(=O)NCC(=O)N2CCN(c3nc(-c4cnc(N)nc4C(F)F)nc(N4CCOCC4)n3)CC2)CC1	WNK1 (Homo sapiens, UniProt Q9H4A3)	KINOMEscan	–	1 µM	–	remaining binding	99%
